Measured values pooled from the literature.
Lines come from different studies, so protocols differ. “And” joins repeats or separate records; there may be more than shown. ± marks the error that the study gave.

`CC(C)[C@H](NC(=O)[C@H](Cc1ccc(O)cc1)NC(=O)[C@H](Cc1ccc(O)cc1)NC(=O)[C@@H]1CCCN1C(=O)[C@H](CCC(=O)O)NC(=O)[C@H](CCC(=O)O)NC(=O)[C@H](Cc1c[nH]c2ccccc12)NC(=O)[C@@H]1CCCN1C(=O)[C@@H](NC(=O)[C@H](CCC(N)=O)NC(=O)c1ccc2c(c1)C(=O)OC21c2ccc(O)cc2Oc2cc(O)ccc21)C(C)C)C(=O)N[C@H](C(=O)N[C@@H](CCCCN)C(=O)N[C@@H](CCCCN)C(=O)N[C@@H](CO)C(=O)N[C@@H](CO)C(=O)NCC(=O)NCC(N)=O)C(C)C`: “share of responses” 30.8% (nerve penetration depth; human head and neck surgery, nerves; 500 mg, improved; baseline: white light).
For `CN(C)C(=N)N=C(N)N`, “caesarean birth incidence” read 40% (gestational diabetes women; dose not given, treated arm).
Under “log2 fold change”, `Cc1n[nH]c2ccc(-c3cc(OC[C@@H](N)Cc4ccccc4)cnc3-c3ccoc3)cc12` is recorded as -0.118 (kinase binding, competitor, MIB/MS competition, measured: KIN2; Candida albicans cell lysate; 1 µM; baseline: DMSO).
`CC(=O)NCC(=O)NCC(=O)N[C@H](C(=O)N[C@@H](Cc1ccc(O)cc1)C(=O)N[C@@H](CO)C(=O)N[C@H]1CSSC[C@@H](C(=O)N[C@@H](CCCNC(=N)N)C(=O)N2CCC[C@H]2C(=O)N[C@@H](CCC(N)=O)C(=O)N[C@@H](CCCNC(=N)N)C(=O)NCC(=O)NCCC(=O)N[C@@H](CCCCNC(=O)CN(CC(=O)NCCCC[C@H](NC(=O)CCNC(=O)CNC(=O)[C@H](CCCNC(=N)N)NC(=O)[C@H](CCC(N)=O)NC(=O)[C@@H]2CCCN2C(=O)[C@H](CCCNC(=N)N)NC(=O)[C@@H]2CSSC[C@H](NC(=O)[C@H](CO)NC(=O)[C@H](Cc3ccc(O)cc3)NC(=O)[C@@H](NC(=O)CNC(=O)CNC(C)=O)[C@@H](C)O)C(=O)N[C@@H](Cc3c[nH]cn3)C(=O)N[C@@H](Cc3ccccc3)C(=O)NCC(=O)N[C@@H](C)C(=O)N[C@@H](CC(C)C)C(=O)N[C@@H]([C@@H](C)O)C(=O)N[C@@H](Cc3c[nH]c4ccccc34)C(=O)N[C@@H](C(C)C)C(=O)N2)C(N)=O)C(=O)CCN)C(N)=O)NC(=O)[C@H](C(C)C)NC(=O)[C@H](Cc2c[nH]c3ccccc23)NC(=O)[C@H]([C@@H](C)O)NC(=O)[C@H](CC(C)C)NC(=O)[C@H](C)NC(=O)CNC(=O)[C@H](Cc2ccccc2)NC(=O)[C@H](Cc2c[nH]cn2)NC1=O)[C@@H](C)O` has a haematocrit of 49.8% (healthy BALB/c mice; subcutaneous, 0.16 mg/kg, 6 d, single dose).
`COc1cc(Nc2ncc3c(n2)-c2ccc(Cl)cc2C(c2c(F)cccc2OC)=NC3)ccc1C(=O)O` — result for “median response score”: 2 (mouse, OS-1 osteosarcoma xenograft; 5.2 mg/kg; direction not given).
`O=c1cc(-c2ccc(O)cc2)oc2c([C@@H]3OC[C@H](O)[C@H](O)[C@H]3O)c(O)c([C@@H]3O[C@H](CO)[C@@H](O)[C@H](O)[C@H]3O)c(O)c12` — result for Lamp1 expression: “increased” (HFpEF mice, heart; dose not given).
`C[C@@H](NC(=O)N1C(=O)[C@H](Cc2ccnc(N)c2)[C@H]1C(=O)O)C1CCCCC1` gave an aPTT AUEC of 5910 h·s (human; iv infusion, 0.6 mg/kg/h, 24 h).
`CN[C@@H]1COc2c(S(=O)(=O)NC(=O)Nc3c4c(cc5c3CCC5)CCC4)cnn2C1` gave an inhibition of 105% (measured: IL-18; human participants, whole blood ex vivo; 900 mg single dose, 4 h, IL-18, circulating, adjusted for, with: LPS/ATP; baseline: baseline).
`Cc1noc(C)c1-c1cc(C(O)(c2ccccn2)c2ccccn2)c2nc(C3CC3)[nH]c2c1` gave a maximum inhibition of 23.9% (measured: CCR2 expression; human, peripheral blood; 6 mg, day 1, 1599 study).
Under “patients with inhibition above threshold”, `CSCCNc1nc(SCCC(F)(F)F)nc2c1ncn2[C@@H]1O[C@H](COP(=O)(O)OP(=O)(O)C(Cl)(Cl)P(=O)(O)O)[C@@H](O)[C@H]1O` is recorded as 8.1% (platelet aggregation, light transmission aggregometry; human patients, platelet-rich plasma; dose not given, 4 to 6 h, inhibition threshold 90%, with: TRAP 5 µM).
With `CN(C)C(=O)Oc1cccc([N+](C)(C)C)c1` the train-of-four ratio was 69.1 (neuromuscular block reversal; rat; dose not given, 9 (unit not given), with: cisatracurium; baseline: T1 twitch).
`C=CCn1c(=O)c2cnc(Nc3ccc(N4CCN(C)CC4)cc3)nc2n1-c1ccc2c(n1)[C@@](O)(CC)CC2`: “tumour volume difference” -341 ± 4.9 mm3 (A-427, NOD/SCID mice, xenograft; oral, 210 mg/kg, intermittent, day 51; baseline: vehicle).
For `N#Cc1ccc2c(-c3ccncc3)c(-c3ccc(F)cc3)nn2c1`, “log2 fold change” read -0.449 (kinase binding, competitor, MIB/MS competition, measured: MKK2; Candida albicans cell lysate; 100 nM; baseline: DMSO).
`C[C@@H](O)CCOC(=O)C[C@@H](C)O` gave a metabolite level of -3.47 ± 1.24 µmol/L (measured: C8 acylcarnitine; human, plasma; 60 min, log2-transformed values).
Under “jaw movement frequency”, `O=C(/C=C/c1cc(F)cc(F)c1)c1ccc[nH]1` is recorded as “decreased” (ZEBRA device; zc4h2 knockout zebrafish larvae, 5 dpf; up to 10 µM, 2 h; baseline: control).
`N#Cc1ccn2c(-c3ccncc3)c(-c3ccc(F)cc3)nc2c1`: “log2 fold change” -0.128 (kinase binding, competitor, MIB/MS competition, measured: TOR1; Candida albicans cell lysate; 100 nM; baseline: DMSO).
The Aβ42 level of `Cn1cc([C@H]2C[C@H]3CSC(N)=N[C@@]3(c3ccc(F)cc3F)CO2)cn1` is reported as 0.35 ng/g (measured: Aβx-42; Mus musculus wild-type, brain; subcutaneous, 50 mg/kg, 3 h).
Under “fractional hepatic DNL”, `COc1ccccc1[C@H](Cn1c(=O)n(C(C)(C)C(=O)O)c(=O)c2c(C)c(-c3ncco3)sc21)OC1CCOCC1` is recorded as 5.35 % new palmitate ([1-13C]acetate infusion, isotopomer analysis; overweight or obese healthy men, plasma VLDL-TG palmitate; oral, 50 mg single dose, -1 h relative to dose, fasted baseline).
`C=Cc1c(C)c2cc3nc(c(CC(=O)O)c4[nH]c(cc5nc(cc1[nH]2)C(C)=C5CC)c(C)c4C(=O)O)[C@@H](CCC(=O)O)[C@@H]3C`: “CD80+ CD86+ dendritic cells” 33.1% and 29.4% and 21.2% and 30.6% (flow cytometry; 4T1 tumour-bearing mice, lymph nodes; 2.5 mg/kg).
`c1ccc(-c2n[nH]cc2-c2ccnc3ccccc23)nc1` — result for “log2 fold change”: 1.07 (kinase binding, competitor, MIB/MS competition, measured: SCH9; Candida albicans cell lysate; 10 µM; baseline: DMSO).
For `O=C1Nc2cc3[nH]nc(-c4ccncc4)c3cc2CN1Cc1ccccc1`, “partial response, best response” read 0% (RECIST v1.1; human, relapsed or refractory advanced solid tumours; intravenous, 11.3 mg/kg).
`COc1nnc2ccc(N3CCC(c4ccc(OCCN5CCN(C)C(=O)[C@H]5C)cc4)CC3)nn12`: “time HEXIM1 above threshold” 3.7 h (mice; 0.038 mg/kg).
`CCN(CC)CCNC(=O)c1cc(S(C)(=O)=O)cnc1OC.Cl` — result for “time on bar”: 1.96 s (catalepsy, bar test; female CD-1 mice; intraperitoneal, 200 mg/kg, 90 min, maximum 1 min).
Under “pathway activation z-score”, `Cn1cc(Nc2nccc(-c3ccc4c(c3)CN(C3COC3)CC[C@H]4NC(=O)c3cn(C(C)(C)C)nn3)n2)cn1` is recorded as 0.243 (measured: Th2 pathway; splenic B cells, mice; 30 mg/kg, IgD-activated in vivo; baseline: vehicle, direction not given).
`Cc1cc(C)c(CNC(=O)c2cc(Cl)c3c(c2C)O[C@@](C)([C@H]2CC[C@H](N(C)C)CC2)O3)c(=O)[nH]1` — result for “best overall response PR”: 24% (IWG 2007 criteria; human, relapsed/refractory peripheral T-cell lymphoma; dose not given).
`C[C@H]1C[C@H]2CSC(N)=N[C@@]2(c2nc(NC(=O)c3ccc(OC(F)F)cn3)cs2)CO1` — result for “percent change from baseline”: -72.2% (measured: Aβx-40; healthy adults, plasma; 540 mg single dose, 24 h post-dose; baseline: placebo).
With `CC(C)NCC(O)c1ccc(O)c(O)c1` (stereo not shown) the sarcomere length was 1.72 µm (ventricular cardiomyocytes, C57BL/6 mouse; dose not given, 0.412 s).
Under “difference from placebo”, `C[C@H](Oc1ccc(Br)cc1-c1ccon1)C(=O)O` is recorded as 0.935% (response latency; human, tibialis anterior muscle; 1200 mg, 30 Hz+30 s).
For `NC(=O)c1cnc2[nH]ccc2c1N[C@@H]1[C@@H]2CC3C[C@H]1C[C@@](O)(C3)C2`, “change from baseline” read -0.05% (flow cytometry, measured: CD4+ effector T cells; Japanese healthy subjects, peripheral blood; oral, 30 mg twice daily, day 7).
`N#Cc1ccc2c(c1)[C@H]1CCCN(C(=O)c3ccc4[nH]cnc4c3)[C@H]1C2`: “total urinary corticosteroid excretion” 254% (T2DM patients with overweight or obesity, urine; oral, 40 mg, day 14, 0-24 h, multiple dosing, adjusted geometric mean; baseline: baseline day -1, -24-0 h).
`OC(CCN1CCCCC1)(c1ccccc1)C1CC2C=CC1C2` (stereo not shown): “power, EEG beta, O2-Pz” 7 µV² (resting-state EEG; healthy elderly humans; oral, 2 mg, eyes open, LS mean).
`CC(c1cc2ccccc2s1)N(O)C(N)=O` (stereo not shown) has an amount of 530000 ± 85600 pg/mL blood (measured: arachidonic acid; human whole blood; 3 µM, with: Escherichia coli).
`NCC(=O)Nc1cncc(-c2nn3c(=O)cc(N4CCNCC4)nc3s2)c1` gave an inhibition of 31.9% (ADP-induced platelet aggregation, light transmission aggregometry; human, stable CAD on aspirin, ex vivo platelets; subcutaneous, 0.05 mg/kg, 90 min post-dose, median value, with: ADP 20 µM).
With `Cc1cc(Nc2ccc(S(F)(F)(F)(F)F)cc2)n2nc(C(C)(F)F)nc2n1` the DHO concentration was 2.02 ± 0.344 µM (measured: dihydroorotate; female CD-1 mice, blood; oral, 300 mg/kg daily, 8 h after dose 1).
The k3 of `O=C(OC(C(F)(F)F)C(F)(F)F)N1CCN(Cc2cccc(Oc3ccccc3)c2)CC1` is reported as 0.804 min⁻¹ (PET blocking study; rhesus monkey, brain CB; 0.3 mg/kg, compound pretreatment, with: [18F]T-401 tracer).
`N#CCC1CCN(c2nc(Nc3ccc(N4CCC(O)CC4)cc3)c3c(=O)[nH]ncc3n2)CC1`: “fold change from baseline” -1.29 (Olink multiplex, measured: CDCP1; human, serum; 80 mg, day 15; baseline: baseline).
With `O=C(O)CNC(=O)Cc1ccccc1` the sarcomere length was 1.72 µm (ventricular cardiomyocytes, C57BL/6 mouse; dose not given, 0.752 s).
`CC(C)[C@H](C(=O)Nc1ccc(C(=O)NO)cc1)c1ccccc1` — result for “annual tumour growth rate”: 92.8 %/year (volumetric MRI; human, left IAC schwannoma; dose not given, end of treatment, day 57).
Under “concentration for aPTT prolongation”, `C[C@@H]1CCC[C@H](n2cnc(-c3cc(Cl)ccc3-n3cc(Cl)nn3)cc2=O)c2cc(ccn2)-c2c(cnn2C(F)F)NC1=O` is recorded as 5 µM (rabbit plasma; IC2.5× aPTT, Actin FS reagent).
Under “plasma protein level change”, `CCOc1c([C@H](C)n2nc(C)c3c(N)ncnc32)cc(Cl)c(F)c1[C@@H]1CNC(=O)C1` is recorded as -34% (Olink proximity extension proteomics, measured: XCL1; human FL or MZL patients, plasma; dose not given, week 8; baseline: baseline).

For quick reference, copied from above:
`CCN(CC)CCNC(=O)c1cc(S(C)(=O)=O)cnc1OC.Cl` — result for “time on bar”: 1.96 s (catalepsy, bar test; female CD-1 mice; intraperitoneal, 200 mg/kg, 90 min, maximum 1 min).
`COc1nnc2ccc(N3CCC(c4ccc(OCCN5CCN(C)C(=O)[C@H]5C)cc4)CC3)nn12`: “time HEXIM1 above threshold” 3.7 h (mice; 0.038 mg/kg).
`NCC(=O)Nc1cncc(-c2nn3c(=O)cc(N4CCNCC4)nc3s2)c1` gave an inhibition of 31.9% (ADP-induced platelet aggregation, light transmission aggregometry; human, stable CAD on aspirin, ex vivo platelets; subcutaneous, 0.05 mg/kg, 90 min post-dose, median value, with: ADP 20 µM).
For `N#Cc1ccc2c(-c3ccncc3)c(-c3ccc(F)cc3)nn2c1`, “log2 fold change” read -0.449 (kinase binding, competitor, MIB/MS competition, measured: MKK2; Candida albicans cell lysate; 100 nM; baseline: DMSO).
`c1ccc(-c2n[nH]cc2-c2ccnc3ccccc23)nc1` — result for “log2 fold change”: 1.07 (kinase binding, competitor, MIB/MS competition, measured: SCH9; Candida albicans cell lysate; 10 µM; baseline: DMSO).
